Measured values from different studies.
Compare with care: the assays were run in different laboratories. Several values in a cell are separate wells, animals, samples, runs or records.

`PDLNGDVVAIDYKHY` has a responding donors of 15% (human CD4 T cells; AIM; peptide).
Under “supernatant virus titre”, `Nc1ncnc2c([C@@H]3N[C@H](CO)[C@@H](O)[C@H]3O)c[nH]c12` is recorded as 7.8e+06 PFU/mL (Marburg marburgvirus; virus production; HeLa, Musoke; 0.4 µM).
For `LTQHGKEDLKFPRGQ`, the responding donors was 8% (human CD4 T cells; AIM; peptide).
`Cc1cc(OCC(O)CN2CCN(c3cccc(Cl)c3)CC2)ccc1Cl` (stereo not drawn) gave an AC50 of 12.6 µM (SARS-CoV-2; cytopathic effect, cell-based CPE; USA_WA1/2020; round 1, 5-point dilution).
With `CCc1c(C(=O)C(N)=O)c2c(OCC(=O)O)cccc2n1Cc1ccccc1` the viability difference was 29.4% (C2C12; 10 µM, with: AP venom; baseline: venom alone).
With `CCCCSCCCNC(=O)C1CCN(Cc2nc(-c3ccc(CC)cc3)oc2C)CC1` the maximum response was 80% (SARS-CoV-2; cytopathic effect; USA_WA1/2020; retest 8-point).
For `CNC(=O)[C@@H](NC(=O)[C@H](CC(C)C)[C@H](O)C(=O)NO)C(C)(C)C`, the inhibition was 5% and 7.8% and 6% (prothrombin time; human platelet-poor plasma; 0.1 µM, with: GA venom).
For `LPQGFSALEPLVDLP`, the responding donors was 18% (human CD4 T cells; AIM; peptide).
With `CCCCN(C)CCNC(=O)c1cc(-c2ccc(Cl)s2)nc2ccccc12` the efficacy was 76.5% (SARS-CoV-2; cytopathic effect; USA_WA1/2020; round 1, 5-point).

Excerpt of the above:
`PDLNGDVVAIDYKHY` has a responding donors of 15% (human CD4 T cells; AIM; peptide).
